{"data": "Results collected from several papers", "note": "Each line is one published result; not all experiments were run side by side. ± gives the spread as reported."}
{"Compound": "CCCC[C@H](NC(=O)CCOCCOCCNC(=O)CN1CCN(CC(=O)O)CCN(CC(=O)O)CCN(CC(=O)O)CC1)C(=O)N[C@H]1CC(=O)NCCCC[C@@H](C(N)=O)NC(=O)[C@H](Cc2c[nH]c3ccccc23)NC(=O)[C@H](CCCNC(=N)N)NC(=O)[C@@H](Cc2ccccc2)NC(=O)[C@H](Cc2c[nH]cn2)NC1=O [gallium-68 labelled]", "test system": "C57BL/6J mice male B16-F10 tumour, pancreas", "setting": "1 h post injection, unblocked", "tissue uptake [%ID/g]": 0.1}
{"Compound": "C=Cc1cc(O)cc2nc(-c3ccc(O)c([76Br])c3)oc12", "test system": "female C57BL/6 mouse, uterus", "setting": "1 h, high dose", "tissue uptake [%ID/g]": "0.21 ± 0.1"}
{"Compound": "N=C(N)NCc1ccc(C(=O)NCCCC[C@H](NC(=O)N[C@@H](CCC(=O)O)C(=O)O)C(=O)O)cc1[211At]", "test system": "SCID mouse, PC-3 xenografts, brain", "setting": "1 h", "tissue uptake [%ID/g]": "0.18 ± 0.13"}
{"Compound": "COc1cc(C(=O)NCCOCCOCCOCCNC(=O)c2ccc([18F])nc2)ccc1NC(=O)C1NC(CC(C)(C)C)C(C#N)(c2ccc(Cl)cc2F)C1c1cccc(Cl)c1F (stereo not shown)", "test system": "athymic male mice, SJSA-1 xenograft, bladder", "setting": "1 h", "tissue uptake [%ID/g]": "7.28 ± 9.23"}
{"Compound": "O=C(O)CC[C@H](NC(=O)O[C@@H](CCCCNC(=O)c1ccc([18F])cc1)C(=O)O)C(=O)O", "test system": "mouse, PC-3 PIP/flu xenografts, fat", "setting": "180 min", "tissue uptake [%ID/g]": "0.04 ± 0.02"}
{"Compound": "CN[C@](C)(C[18F])C(=O)O", "test system": "SCID mouse SK-OV-3 xenograft, brain", "setting": "60 min, post injection", "tissue uptake [%ID/g]": "0.3 ± 0.04"}
{"Compound": "N=C(N)NCc1ccc(C(=O)NCCCC[C@H](NC(=O)CCCCCCC(=O)NCCCC[C@H](NC(=O)N[C@@H](CCC(=O)O)C(=O)O)C(=O)O)C(=O)O)cc1[211At]", "test system": "SCID mouse, PC-3 xenografts, lungs", "setting": "1 h", "tissue uptake [%ID/g]": "2.24 ± 0.51"}
{"Compound": "COc1cc2ncnc(Oc3cccc(N[11C](=O)Nc4cc(C(C)(C)C(F)(F)F)on4)c3)c2cc1OC", "test system": "Balb/c nude mouse, female, A375 melanoma xenograft, lung", "setting": "6.6 MBq, 30 min", "tissue uptake [%ID/g]": "3.45 ± 0.2"}
{"Compound": "O=C(c1ccc(F)cc1)C1CCN(C2Cc3c(cccc3OCC[18F])CC2O)CC1 (single isomer, unassigned; (-))", "test system": "Sprague-Dawley rat, male, whole brain", "setting": "30 min post-injection", "tissue uptake [%ID/g]": "0.482 ± 0.037"}
{"Compound": "N=C(N)NCc1ccc(C(=O)NCCCC[C@H](NC(=O)N[C@@H](CCC(=O)O)C(=O)O)C(=O)O)cc1[131I]", "test system": "SCID mouse, PC-3 xenografts, liver", "setting": "1 h", "tissue uptake [%ID/g]": "8.27 ± 2.65"}
{"note": "Excerpt of the above:"}
{"Compound": "COc1cc(C(=O)NCCOCCOCCOCCNC(=O)c2ccc([18F])nc2)ccc1NC(=O)C1NC(CC(C)(C)C)C(C#N)(c2ccc(Cl)cc2F)C1c1cccc(Cl)c1F (stereo not shown)", "test system": "athymic male mice, SJSA-1 xenograft, bladder", "setting": "1 h", "tissue uptake [%ID/g]": "7.28 ± 9.23"}
